Published values collected from several papers.
Lines come from different studies, so protocols differ. Numbers after ± are the reported error.
metK 1-426: metK 1-426 (Sinorhizobium meliloti, UniProt Q92SI4)
EXOSC3 1-275: EXOSC3 fragment (Homo sapiens)
Chain of UniProt P19466 (whole entry, unmodified, looked up): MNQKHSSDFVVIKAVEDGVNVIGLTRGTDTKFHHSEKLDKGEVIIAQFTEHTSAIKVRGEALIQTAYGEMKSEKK
Chain of UniProt P07766 (whole entry, looked up): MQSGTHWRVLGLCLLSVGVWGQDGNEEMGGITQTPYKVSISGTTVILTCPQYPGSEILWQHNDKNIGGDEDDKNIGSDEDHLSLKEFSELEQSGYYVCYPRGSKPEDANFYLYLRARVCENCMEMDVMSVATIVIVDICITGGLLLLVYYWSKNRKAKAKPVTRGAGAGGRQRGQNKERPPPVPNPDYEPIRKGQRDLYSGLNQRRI
Chain of UniProt P07271 (whole entry, unmodified, looked up): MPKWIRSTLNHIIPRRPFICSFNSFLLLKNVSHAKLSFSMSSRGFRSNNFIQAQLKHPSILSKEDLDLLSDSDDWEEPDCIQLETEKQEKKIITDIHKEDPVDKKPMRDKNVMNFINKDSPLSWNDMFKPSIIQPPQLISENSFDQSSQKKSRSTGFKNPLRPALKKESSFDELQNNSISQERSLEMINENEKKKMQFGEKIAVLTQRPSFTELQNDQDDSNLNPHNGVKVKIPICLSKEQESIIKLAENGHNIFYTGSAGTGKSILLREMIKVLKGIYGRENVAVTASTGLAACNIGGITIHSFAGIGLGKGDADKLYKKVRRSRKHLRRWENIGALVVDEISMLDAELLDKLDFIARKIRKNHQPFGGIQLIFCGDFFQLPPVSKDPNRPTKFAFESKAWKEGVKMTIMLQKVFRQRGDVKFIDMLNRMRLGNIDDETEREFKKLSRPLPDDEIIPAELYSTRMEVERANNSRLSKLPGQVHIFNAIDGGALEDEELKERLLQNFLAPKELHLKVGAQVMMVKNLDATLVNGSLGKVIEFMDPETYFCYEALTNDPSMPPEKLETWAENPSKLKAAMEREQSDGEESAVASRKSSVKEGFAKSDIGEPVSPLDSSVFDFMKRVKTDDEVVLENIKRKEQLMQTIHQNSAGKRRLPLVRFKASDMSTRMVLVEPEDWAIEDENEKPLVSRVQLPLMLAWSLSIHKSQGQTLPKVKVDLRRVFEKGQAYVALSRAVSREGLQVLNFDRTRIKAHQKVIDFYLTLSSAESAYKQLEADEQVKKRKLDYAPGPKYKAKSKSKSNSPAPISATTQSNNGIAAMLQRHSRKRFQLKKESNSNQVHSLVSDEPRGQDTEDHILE
Chain of UniProt P76064 (whole entry, looked up): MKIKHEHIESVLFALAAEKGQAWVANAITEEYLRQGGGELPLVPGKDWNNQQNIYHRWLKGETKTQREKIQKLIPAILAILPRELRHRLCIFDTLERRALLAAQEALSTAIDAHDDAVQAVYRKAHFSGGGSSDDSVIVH
Chain of UniProt P76318 (whole entry, looked up): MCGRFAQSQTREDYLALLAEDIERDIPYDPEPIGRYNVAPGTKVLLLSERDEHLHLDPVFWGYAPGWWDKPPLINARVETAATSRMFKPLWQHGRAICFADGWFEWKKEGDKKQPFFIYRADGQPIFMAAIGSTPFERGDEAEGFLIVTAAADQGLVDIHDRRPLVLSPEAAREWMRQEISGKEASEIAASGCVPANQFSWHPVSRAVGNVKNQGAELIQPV
Chain of UniProt Q97W02 (whole entry, looked up): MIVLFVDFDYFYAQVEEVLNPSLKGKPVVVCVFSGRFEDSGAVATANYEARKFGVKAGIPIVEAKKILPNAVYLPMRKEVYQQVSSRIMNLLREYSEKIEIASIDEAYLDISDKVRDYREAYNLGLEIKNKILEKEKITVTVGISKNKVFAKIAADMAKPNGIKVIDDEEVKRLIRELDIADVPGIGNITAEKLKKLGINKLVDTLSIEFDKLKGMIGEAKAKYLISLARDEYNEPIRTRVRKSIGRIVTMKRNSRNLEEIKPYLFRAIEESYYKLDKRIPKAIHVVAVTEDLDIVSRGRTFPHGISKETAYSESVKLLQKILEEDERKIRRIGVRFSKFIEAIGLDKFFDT
Chain of UniProt O60656 (whole entry, looked up): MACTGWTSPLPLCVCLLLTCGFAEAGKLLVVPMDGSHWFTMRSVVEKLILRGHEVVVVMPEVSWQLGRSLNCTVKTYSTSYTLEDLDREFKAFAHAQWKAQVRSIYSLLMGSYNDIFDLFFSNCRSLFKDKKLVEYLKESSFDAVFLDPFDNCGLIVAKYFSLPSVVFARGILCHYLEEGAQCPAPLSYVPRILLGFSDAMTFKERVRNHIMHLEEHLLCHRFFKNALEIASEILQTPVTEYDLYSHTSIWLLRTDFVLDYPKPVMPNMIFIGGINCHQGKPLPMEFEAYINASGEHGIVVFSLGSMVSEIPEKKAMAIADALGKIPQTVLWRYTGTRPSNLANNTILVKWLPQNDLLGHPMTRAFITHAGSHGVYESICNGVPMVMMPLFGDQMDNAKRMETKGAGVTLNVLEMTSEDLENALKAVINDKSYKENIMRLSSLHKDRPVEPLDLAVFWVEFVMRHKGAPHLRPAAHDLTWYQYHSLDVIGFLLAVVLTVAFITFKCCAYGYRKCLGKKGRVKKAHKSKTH

GACTACGTACTGTTACGGCTCCATCTCTACCGCAATCAGGCCAGATCTGC (ssDNA; fluorescein on T26) — Kd (p44/p62 (Chaetomium thermophilum); fluorescence anisotropy; Mg2+ 5 mM): 0.02 µM
GGGCGGAGUAGCUCAGUAGGUUAGAGCAGAGGAAUCAUAAUCCUUGUGUCGGGGGUUCGAAUCCCUCCUCCGCUACCA (structured RNA) — Kd (metK 1-426; filter binding): 0.0013 µM
CATTATCCTAAACATAACTTAACTAGTTTAACTTAATTCTTCAATATACC / GGTATATTGAAGAATTAAGTTAAGCTAGTTAAGTTATGTTTAGGATAATG (dsDNA; blunt, T:G mismatch at 27) — Kd (MSH2/MSH6 (Homo sapiens); EMSA; together with: ADP 0.1 mM): 0.0189 ± 0.0006 µM
GAGUUGAGUUGAGUUGAGUUGAGUUGAGUUGAGUUGAGUUGAGUUGAGUUGAGUU (ssRNA; single strand) — Kd (mtrB full length assumed (Bacillus subtilis, UniProt P19466); filter binding; together with: L-tryptophan 1 mM): 0.001 ± 0.0005 µM
AAGCAGTGGTATCAACGCAGAGAAATATGTATGACAAGGAAGG / CCTTCCTTGTCATACAT (DNA duplex; 17 bp, 5' overhang 26 nt) — Kd (PIF1 full length assumed (Saccharomyces cerevisiae, UniProt P07271); single-molecule PIFE; together with: ATP 2 mM): 0.0185 µM
GGGUAUCGUGCGCAAUUUUUUCAGAAUCGAAAGGUUCAAAGUACAAAUAAGCAUAUAAGGAAAAGAGAGAAUGGCUAAGGGGCAAUCUUUACAAGAUCCGUUC (structured RNA) — Kd (hfq fragment V43C (Escherichia coli); EMSA): 0.0011 ± 0.0002 µM
DNA 1 AACGACGGCCAGTGAATTC / DNA 2 CCCGCGCGAATTCACTGGCCGTCGTT (dsDNA; aminopyrene-dG adduct, 5' overhang) — Kd (dbh full length assumed (Saccharolobus solfataricus, UniProt Q97W02); EMSA; double-stranded DNA; together with: Mg2+): 0.0098 ± 0.0009 µM
GGGAGGG (ssRNA) — Kd (EXOSC3 1-275; MST; apparent): 3.58 ± 2.5 µM
AGTTGAGGGGACTTTCCCAGGC (dsDNA) — Kd (HMGB2 box A A17M (Homo sapiens, UniProt P26583); fluorescence anisotropy; double-stranded DNA, one strand shown): 0.103 ± 0.02 µM
CGGTNGATTC (ssDNA; THF abasic at position 5) — Kd (yedK 2-222 (Escherichia coli, UniProt P76318); ITC): 0.17 µM
GAGCUGGUGCAUCUAGCGGCUUUCUCCUCCCCAGCCGCUGCAGCAGCUGUUCCCCUCUGGAGGUUUGAAACCUUCACAACUGAAAGGGCCCAAGUUUCUUGUGGCCCUCUUUUUUU (structured RNA) — Kd (metK 1-426; filter binding): 0.0456 µM
AGCTGCCAGGCACCAGTGTCA / TGACACTGGTGCTTGGCAGCT (dsDNA; 21-bp, G-T mismatch, dT20 linker) — Kd (mutS fragment (Escherichia coli); SPR): 0.03 ± 0.004 µM
GAUCCUUGUCGUCCCUGCCUUGCAUACGAACCAGGUUGUUCCAGCAACCAUUCGGGCCACGAUGAGGAACCGACCGCGAUCCUGCUUCUCCGUAACCCCCAAAGGUUCUGGUGCCGGCGAUCCGACGGUCGGCGCCUUUGGCCGGGCGGCCGCCCGGCCAAAGGCAU (structured RNA) — Kd (metK 1-426; filter binding): 0.0124 µM
ATAGACTGGACTGTCGTCNGGAGNGGGGTAGAGTGGGGNTGGGGCTATGGGGCTAGCATCGGATACAGGTC (XNA; AEGIS dP at 19, 24, 39) — Kd (CD3E 23-207 (Homo sapiens, UniProt P07766); flow cytometry; Jurkat.E6; 37 °C, apparent, not purified): 0.044 ± 0.021 µM
UGT1A9 (Homo sapiens, UniProt O60656) — Vmax/Km (CCOC(=O)c1ccc(O)cc1; steady-state kinetics; pH 7.4, 37 °C): 41 µL/min/mg
AGGATTGCGCAATAT (dsDNA; blunt, 5mC at CpA) — Kd (CEBPB 269-344 V285A (Homo sapiens, UniProt P17676); fluorescence polarization; double-stranded DNA, one strand shown): 0.007 ± 0.002 µM
GTGTGTGTGGTG (ssDNA) — Kd (PIF1 residues 237-780 (Saccharomyces cerevisiae, UniProt P07271); fluorescence anisotropy): 0.011 ± 0.0022 µM
GGGAGGGAGGGAGAGGGA (ssRNA) — Kd (EXOSC3 1-275; MST; apparent): 5.8 ± 1.3 µM
GGGGAUGAAGCAAGGGGGUGCCCCAUGCGUCAGUUUUAUCAGCACUAUUUUACCGCGACAGCGAAGUUGUGCUGGUUGCGUUGGUUAAGCGUCCCACAACGAUUAACCAUGCUUGAAGGACUGAUGCAGUGGGAUGACCGCAAUUCUGAAAGUUGACUUGCCUGCAUCAUGUGUGACUGAGUAUUGGUGUAAAAUCACCCGCCAGCAGAUUAUACCUGCUGGUUUUUUUU (structured RNA) — Kd (hfq full length assumed (Escherichia coli, UniProt P0A6X3); EMSA): 0.00337 µM
TGGCGGCATTAATGCCGTTAATTGCACCTTTTTGCGAACATTTATTCAGTGAAATTTTTAATTTGCTGGCTGATATTATTAGTGAATTGCCATTAATATAATTCCGTAACGTTTATCATGTTATCCTAAGGATTATCCGAAAAATAATACCTACGAACATCTTCCAGGATACTCCTGCAGCGAAATATTTGTTTTAAGCTCACTCACATATCGCAACATTTACTTTACTTTAAGACAATTCCAGGCAAATTATACAACACTTTACGGGATAGTAAGTCCGCCTGAAAAATCGCGAGAGTGGCGCATTAGGTGACCCATGTTGTTCCGTTTAGTCATGATGAAATATTCAGGTAAGGGGAATTATCGTTACGCATTGAGTGAGGGTATGCCATGTCAACGATTATTATGGATTTATGTAGTTACACCCGACTAGGTTTAACC (dsDNA) — Kd (ydaT full length assumed (Escherichia coli, UniProt P76064); spectral shift; double-stranded DNA, one strand shown; together with: poly(dI-dC)): 1.23 µM
UAGUUUAGUUUAGUUUAGUUUAGUUUAGUUUAGUUUAGUUUAGUUUAGUUUAGUU (ssRNA; single strand) — Kd (mtrB full length assumed T30V/K37A (Bacillus subtilis, UniProt P19466); filter binding): 0.115 µM
CTGGAGTACAATTCCATTCCATTCCATTCCATTCCATTCCATTCCATTCCATTCCATTCCATTCCATTCCATTCCATTCCATTCCATTCCTAACTTTCTA (dsDNA) — Kd (F2 alpha-thrombin (Homo sapiens); ITC; double-stranded DNA, one strand shown; pH 7.2): 5.98 µM

Repeated from above:
UGT1A9 (Homo sapiens, UniProt O60656) — Vmax/Km (CCOC(=O)c1ccc(O)cc1; steady-state kinetics; pH 7.4, 37 °C): 41 µL/min/mg
AGGATTGCGCAATAT (dsDNA; blunt, 5mC at CpA) — Kd (CEBPB 269-344 V285A (Homo sapiens, UniProt P17676); fluorescence polarization; double-stranded DNA, one strand shown): 0.007 ± 0.002 µM
GTGTGTGTGGTG (ssDNA) — Kd (PIF1 residues 237-780 (Saccharomyces cerevisiae, UniProt P07271); fluorescence anisotropy): 0.011 ± 0.0022 µM
GGGAGGGAGGGAGAGGGA (ssRNA) — Kd (EXOSC3 1-275; MST; apparent): 5.8 ± 1.3 µM
